# Measured values gathered from unrelated publications.
# Compare with care: the assays were run in different laboratories. Numbers after ± are the reported error.
# PNLIP: Pancreatic triacylglycerol lipase (PNLIP, Homo sapiens, UniProt P16233)
# UniProt P16233, sequence (whole entry, looked up): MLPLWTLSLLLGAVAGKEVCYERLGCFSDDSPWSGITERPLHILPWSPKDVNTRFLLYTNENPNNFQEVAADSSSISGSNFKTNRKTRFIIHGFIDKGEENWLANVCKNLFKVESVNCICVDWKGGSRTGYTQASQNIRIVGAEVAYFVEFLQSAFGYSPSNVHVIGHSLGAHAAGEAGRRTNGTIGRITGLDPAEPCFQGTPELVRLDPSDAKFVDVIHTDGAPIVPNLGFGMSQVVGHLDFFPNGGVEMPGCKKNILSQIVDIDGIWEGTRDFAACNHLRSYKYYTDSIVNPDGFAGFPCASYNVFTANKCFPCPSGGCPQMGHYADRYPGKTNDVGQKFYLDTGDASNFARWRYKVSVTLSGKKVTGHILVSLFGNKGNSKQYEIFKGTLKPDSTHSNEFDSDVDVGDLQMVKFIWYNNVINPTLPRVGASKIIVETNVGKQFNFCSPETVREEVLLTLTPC
# MAPK9: Mitogen-activated protein kinase 9 (MAPK9, Homo sapiens, UniProt P45984)
# CRBN/Zinc finger protein Aiolos: CRBN/Zinc finger protein Aiolos (Homo sapiens, UniProt Q96SW2+Q9UKT9)
# IL1RL2: Interleukin-1 receptor-like 2 (IL1RL2, Homo sapiens, UniProt Q9HB29)
# UniProt P42336, sequence (whole entry, unmodified, looked up): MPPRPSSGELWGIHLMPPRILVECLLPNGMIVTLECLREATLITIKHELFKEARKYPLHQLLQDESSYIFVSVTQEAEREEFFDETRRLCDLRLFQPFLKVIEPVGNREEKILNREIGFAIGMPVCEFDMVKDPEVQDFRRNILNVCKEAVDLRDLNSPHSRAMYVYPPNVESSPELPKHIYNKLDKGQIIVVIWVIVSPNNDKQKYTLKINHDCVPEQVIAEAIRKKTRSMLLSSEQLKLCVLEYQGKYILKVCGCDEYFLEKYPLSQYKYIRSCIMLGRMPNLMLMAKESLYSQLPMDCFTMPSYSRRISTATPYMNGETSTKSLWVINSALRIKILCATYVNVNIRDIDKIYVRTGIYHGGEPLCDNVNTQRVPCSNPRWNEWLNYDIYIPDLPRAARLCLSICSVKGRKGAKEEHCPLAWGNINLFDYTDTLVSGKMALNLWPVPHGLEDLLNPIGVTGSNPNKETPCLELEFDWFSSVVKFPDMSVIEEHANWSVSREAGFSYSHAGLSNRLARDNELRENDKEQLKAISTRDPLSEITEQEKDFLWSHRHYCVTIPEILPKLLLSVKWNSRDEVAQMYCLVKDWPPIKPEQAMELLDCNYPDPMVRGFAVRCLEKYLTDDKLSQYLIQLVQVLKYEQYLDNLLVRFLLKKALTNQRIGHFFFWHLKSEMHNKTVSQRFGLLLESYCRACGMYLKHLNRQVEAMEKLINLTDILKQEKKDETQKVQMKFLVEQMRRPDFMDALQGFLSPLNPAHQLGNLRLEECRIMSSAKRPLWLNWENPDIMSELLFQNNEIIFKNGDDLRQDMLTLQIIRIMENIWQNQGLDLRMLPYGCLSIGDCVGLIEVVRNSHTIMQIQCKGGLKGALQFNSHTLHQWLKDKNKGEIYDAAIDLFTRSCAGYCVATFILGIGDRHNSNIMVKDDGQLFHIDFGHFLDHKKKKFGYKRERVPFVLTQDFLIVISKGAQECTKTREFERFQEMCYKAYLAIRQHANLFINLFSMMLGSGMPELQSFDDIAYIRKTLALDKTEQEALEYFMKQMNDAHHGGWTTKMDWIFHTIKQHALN
# UniProt Q9HB29, sequence (whole entry, looked up): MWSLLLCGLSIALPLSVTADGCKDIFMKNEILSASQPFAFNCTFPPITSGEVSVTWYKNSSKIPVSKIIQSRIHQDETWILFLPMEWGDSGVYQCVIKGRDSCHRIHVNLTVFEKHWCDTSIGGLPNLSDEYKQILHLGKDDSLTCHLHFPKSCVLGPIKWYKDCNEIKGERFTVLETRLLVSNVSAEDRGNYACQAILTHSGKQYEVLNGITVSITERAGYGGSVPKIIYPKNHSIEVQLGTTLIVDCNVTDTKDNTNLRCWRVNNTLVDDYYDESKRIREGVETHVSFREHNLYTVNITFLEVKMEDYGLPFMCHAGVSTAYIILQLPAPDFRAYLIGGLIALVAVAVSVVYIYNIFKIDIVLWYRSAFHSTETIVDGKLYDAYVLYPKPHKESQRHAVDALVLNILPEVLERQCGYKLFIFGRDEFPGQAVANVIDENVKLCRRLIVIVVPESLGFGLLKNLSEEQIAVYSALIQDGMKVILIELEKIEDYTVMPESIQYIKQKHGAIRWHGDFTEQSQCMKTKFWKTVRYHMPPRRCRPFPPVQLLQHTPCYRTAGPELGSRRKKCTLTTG
# UniProt Q4JIM5, sequence (whole entry, looked up): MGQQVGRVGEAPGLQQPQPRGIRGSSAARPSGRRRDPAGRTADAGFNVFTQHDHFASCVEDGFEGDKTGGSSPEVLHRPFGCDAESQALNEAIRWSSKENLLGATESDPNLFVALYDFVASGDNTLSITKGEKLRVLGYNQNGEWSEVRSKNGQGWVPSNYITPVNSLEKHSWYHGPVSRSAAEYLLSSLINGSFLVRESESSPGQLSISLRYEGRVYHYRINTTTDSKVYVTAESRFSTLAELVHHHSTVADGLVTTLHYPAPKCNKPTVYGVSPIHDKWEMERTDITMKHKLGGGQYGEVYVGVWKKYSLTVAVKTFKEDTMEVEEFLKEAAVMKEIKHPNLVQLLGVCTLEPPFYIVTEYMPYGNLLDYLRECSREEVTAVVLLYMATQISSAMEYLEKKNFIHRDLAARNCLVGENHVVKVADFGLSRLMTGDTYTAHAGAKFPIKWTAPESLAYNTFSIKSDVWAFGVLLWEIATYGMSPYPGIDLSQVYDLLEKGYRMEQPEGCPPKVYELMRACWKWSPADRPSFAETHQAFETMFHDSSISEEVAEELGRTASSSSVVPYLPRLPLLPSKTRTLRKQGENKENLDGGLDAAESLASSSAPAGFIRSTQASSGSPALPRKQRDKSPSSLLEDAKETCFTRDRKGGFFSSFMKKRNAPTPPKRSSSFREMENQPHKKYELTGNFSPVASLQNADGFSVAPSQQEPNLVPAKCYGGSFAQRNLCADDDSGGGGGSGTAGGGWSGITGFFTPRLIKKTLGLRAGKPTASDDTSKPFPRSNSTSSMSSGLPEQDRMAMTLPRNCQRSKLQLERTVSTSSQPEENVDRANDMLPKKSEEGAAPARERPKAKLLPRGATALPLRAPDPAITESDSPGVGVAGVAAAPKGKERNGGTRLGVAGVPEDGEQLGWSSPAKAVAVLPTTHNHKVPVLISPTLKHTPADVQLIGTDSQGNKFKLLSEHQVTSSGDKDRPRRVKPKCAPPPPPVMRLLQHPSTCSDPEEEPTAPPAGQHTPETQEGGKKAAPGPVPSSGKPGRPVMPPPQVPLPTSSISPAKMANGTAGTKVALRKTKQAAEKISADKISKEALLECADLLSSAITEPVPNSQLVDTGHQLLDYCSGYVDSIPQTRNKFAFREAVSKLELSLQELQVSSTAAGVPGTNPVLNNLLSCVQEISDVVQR
# UniProt P25774, sequence (whole entry, looked up): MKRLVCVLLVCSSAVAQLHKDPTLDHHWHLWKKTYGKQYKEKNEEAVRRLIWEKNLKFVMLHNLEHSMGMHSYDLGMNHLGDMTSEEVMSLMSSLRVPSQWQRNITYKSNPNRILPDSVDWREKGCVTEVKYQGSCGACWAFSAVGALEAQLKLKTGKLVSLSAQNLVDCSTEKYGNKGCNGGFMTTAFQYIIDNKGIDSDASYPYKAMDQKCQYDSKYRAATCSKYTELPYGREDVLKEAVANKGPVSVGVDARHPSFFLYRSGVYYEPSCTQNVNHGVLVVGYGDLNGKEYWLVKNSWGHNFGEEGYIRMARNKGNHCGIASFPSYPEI
# UniProt P08246, sequence (whole entry, looked up): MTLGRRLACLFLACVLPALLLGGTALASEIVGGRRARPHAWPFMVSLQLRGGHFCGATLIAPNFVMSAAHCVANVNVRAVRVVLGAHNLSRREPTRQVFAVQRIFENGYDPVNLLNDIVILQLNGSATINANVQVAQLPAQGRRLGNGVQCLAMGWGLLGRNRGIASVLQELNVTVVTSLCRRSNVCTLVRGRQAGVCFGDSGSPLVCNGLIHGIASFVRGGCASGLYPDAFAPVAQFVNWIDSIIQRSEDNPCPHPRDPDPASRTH
# UniProt P03070, sequence (whole entry, looked up): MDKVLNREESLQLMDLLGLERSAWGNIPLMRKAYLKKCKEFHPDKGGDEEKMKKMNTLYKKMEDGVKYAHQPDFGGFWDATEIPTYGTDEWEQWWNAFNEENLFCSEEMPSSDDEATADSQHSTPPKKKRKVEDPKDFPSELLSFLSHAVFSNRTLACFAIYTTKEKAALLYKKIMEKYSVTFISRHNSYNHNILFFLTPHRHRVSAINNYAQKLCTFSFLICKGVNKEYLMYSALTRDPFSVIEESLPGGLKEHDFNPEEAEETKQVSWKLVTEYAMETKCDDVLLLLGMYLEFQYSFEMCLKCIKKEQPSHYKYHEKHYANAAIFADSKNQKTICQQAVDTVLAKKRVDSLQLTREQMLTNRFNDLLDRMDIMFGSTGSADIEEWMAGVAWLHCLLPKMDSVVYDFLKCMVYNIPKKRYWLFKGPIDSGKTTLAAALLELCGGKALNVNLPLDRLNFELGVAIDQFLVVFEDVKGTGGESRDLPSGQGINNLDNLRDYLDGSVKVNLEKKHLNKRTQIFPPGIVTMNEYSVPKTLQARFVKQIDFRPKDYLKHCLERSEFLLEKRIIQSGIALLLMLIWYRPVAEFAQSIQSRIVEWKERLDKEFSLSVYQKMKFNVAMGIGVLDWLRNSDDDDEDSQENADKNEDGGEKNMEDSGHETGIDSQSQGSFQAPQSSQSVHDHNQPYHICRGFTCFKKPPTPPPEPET
# UniProt P30043, sequence (whole entry, looked up): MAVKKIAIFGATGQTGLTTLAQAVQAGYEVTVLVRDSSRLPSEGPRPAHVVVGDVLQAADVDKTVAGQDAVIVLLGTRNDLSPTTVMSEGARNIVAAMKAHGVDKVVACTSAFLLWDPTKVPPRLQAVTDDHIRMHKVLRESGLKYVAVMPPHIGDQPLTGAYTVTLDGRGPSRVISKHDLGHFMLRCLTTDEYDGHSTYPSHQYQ
SMILES,target or system,test,system,conditions,scale,measurement,result
O=C1c2ccccc2C(=O)c2cc(Cl)ccc21,PNLIP,"enzyme activity, inhibitor, fluorescence",,50 µM,,remaining activity,13.3%
COc1ccc(NC(=O)Nc2ccc3c(c2)C(=O)N(C(C)CO)CC(C)C(CN(C)Cc2ccc4c(c2)OCO4)O3)cc1 (centres unmarked),"Abl2 (Mus musculus, UniProt Q4JIM5)","kinase activity, KinaseProfiler",,"0.03 µM, species mouse",relative to: control,remaining activity,97%
C[n+]1cc(/C=N/NC(=O)N/N=C/c2cc3ccccc3[n+](C)c2)cc2ccccc21,hp2 hairpin duplex DNA,FRET melting,,1 µM,,ΔTm,1.6 ± 0.3 °C
COC(=O)[C@@]1(C)C=C(C(=O)Nc2cccc(C(=O)Nc3ccc(Nc4nccc(-c5cccnc5)n4)c(C)c3)c2)C(=O)CC1,MAPK9,"enzyme activity, inhibitor",,"2.788e-05 µM, unit not given",relative to: vehicle,remaining activity,0.994
CCCC[C@H](NC(=O)CCCCCCCNC(=O)CN1CCN(CC(=O)O)CCN(CC(=O)O)CC1)C(=O)N[C@H]1CC(=O)NCCCC[C@@H](C(N)=O)NC(=O)[C@H](Cc2c[nH]c3ccccc23)NC(=O)[C@H](CCCNC(=N)N)NC(=O)[C@@H](Cc2ccccc2)NC(=O)[C@H](Cc2c[nH]cn2)NC1=O [technetium-99m labelled],,,"C57 mouse, spleen","intravenous, 0.037 MBq, 2 h",,tissue uptake,0.07 ± 0.06 %ID/g
O=S(=O)(c1cccc(-c2ccc3ncnc(Nc4ccc(OCc5cccc(F)c5)c(Cl)c4)c3c2)c1)N1CCOCC1,Leishmania major,"intracellular amastigote growth, luciferase",RAW264.7 macrophages,,,EC50,> 15 µM
O=C1CCC(N2C(=O)c3cccc4c(Cc5cnn(C6CCN(C(=O)C7(O)CCC7)CC6)c5)ccc2c34)C(=O)N1 (centres unmarked),CRBN/Zinc finger protein Aiolos,"protein level, degrader, western blot",NCI-H929,"10 nM, 4 h",,remaining activity,6.11%
CC(C)[C@@H]1NC(=O)[C@H](Cc2ccccc2)NC(=O)CSC[C@@H](C(N)=O)NC(=O)[C@H](CCC(=O)O)NC(=O)[C@H](CO)NC(=O)[C@H](Cc2c[nH]c3cccc(Cl)c23)NC(=O)[C@H](C2CCCCC2)NC(=O)[C@H](C(C)C)NC(=O)[C@H](Cc2ccc(O)cc2)NC(=O)[C@H](CC(=O)O)NC(=O)[C@H](Cc2c[nH]c3ccccc23)NC(=O)[C@H](Cc2ccc(N)nc2)NC(=O)[C@H](Cc2c[nH]c3ccc(Cl)cc23)NC(=O)[C@H](CCC(=O)O)NC1=O,IL1RL2,"reporter gene (SEAP), inhibitor, HEK-Blue IL-36R reporter",HEK-Blue IL-36R cells,"100 µM, 6 h, with: IL-36β 3 ng/mL",,remaining activity,18.9%
Cc1ccc(Nc2ccc(O)c3c2C(=O)c2ccccc2C3=O)cc1,PNLIP,"enzyme activity, inhibitor, fluorescence",,50 µM,,remaining activity,23.6%
O=C1CCC(N2C(=O)c3cccc4c(Cc5cnn(C6CCN(C(=O)CO)CC6)c5)ccc2c34)C(=O)N1 (centres unmarked),CRBN/Zinc finger protein Aiolos,"protein level, degrader, western blot",NCI-H929,"100 pM, 4 h",,remaining activity,85.3%
COc1ccccc1-c1ccncc1C(=O)Nc1nnc(OCc2ccc(Cl)cc2)s1,"DNA polymerase theta, helicase domain (POLQ, Homo sapiens, UniProt O75417)","ATPase activity, ADP-Glo",,"0.008 µM, with: ATP 400 µM",,remaining activity,81%
C[C@](C(=O)NC1CCOCC1)(c1cncnc1)N(C(=O)[C@H](F)Cl)c1ccc(OC(F)(F)Cl)cc1,"Neutrophil elastase (ELANE, Homo sapiens, UniProt P08246)","enzyme activity, inhibitor",,10 µM,,remaining activity,103%
CN1CCN(S(=O)(=O)c2ccc(-c3ccc4ncnc(Nc5ccc(F)cc5)c4c3)cc2)CC1,Leishmania major,"intracellular amastigote growth, luciferase",RAW264.7 macrophages,,,EC50,> 15 µM
Nc1ccc(O)c2c1C(=O)c1c(O)ccc(N)c1C2=O,PNLIP,"enzyme activity, inhibitor, fluorescence",,50 µM,,remaining activity,7.9%
CC[n+]1cccc2cc(/C=N/NC(=O)C(=O)N/N=C/c3ccc4c(ccc[n+]4CC)c3)ccc21,hp2 hairpin duplex DNA,FRET melting,,1 µM,,ΔTm,1.8 ± 0.4 °C
Cc1cc(NC(=O)c2cccc(N)c2)ccc1Nc1nccc(-c2cccnc2)n1,MAPK9,"enzyme activity, inhibitor",,"14.81 µM, unit not given",relative to: vehicle,remaining activity,0.183
O=C1c2cccc(O)c2C(=O)c2cccc(O)c21,PNLIP,"enzyme activity, inhibitor, fluorescence",,50 µM,,remaining activity,7.76%
N#Cc1cnc2sc(C(=O)O)cc2c1N1CCc2[nH]nc(C(=O)N[C@@H](CC(=O)NCCOCCN3CCOCC3)c3cccc(Br)c3)c2C1,IL1RL2,"SEAP reporter gene, antagonist",HEK-Blue IL-36R cells,"0.005 µM, 6 h, with: IL-36 0.01 ng/mL",relative to: untreated,remaining activity,84.5%
CC(C)(O)C(=O)N1CCC(n2cc(Cc3ccc4c5c(cccc35)C(=O)N4C3CCC(=O)NC3=O)cn2)CC1 (centres unmarked),CRBN/Zinc finger protein Aiolos,"protein level, degrader, western blot",NCI-H929,"10 nM, 4 h",,remaining activity,6.33%
COC(=O)CN1CCCc2cc3cc(C(=O)NC(Cc4ccc(C)cc4)C(=O)NCC=CS(=O)(=O)c4ccccc4)c(=O)oc3cc21 (centres unmarked),"Cathepsin S (CTSS, Homo sapiens, UniProt P25774)",inhibitor,,"5 µM, 60 min, with: Z-Phe-Arg-AMC",relative to: uninhibited control,remaining activity,< 1%
O=c1c(-c2ccc(Cl)c(CN3CCOCC3)c2)coc2cc(O)ccc12,"Phosphatidylinositol 4,5-bisphosphate 3-kinase catalytic subunit alpha isoform, with p85 (PIK3CA, Homo sapiens, UniProt P42336)","enzyme activity, inhibitor",,1 µM,,remaining activity,101%
O=C1CCC(N2C(=O)c3cccc4c(Cc5ccc(CN6CCNCC6)nc5)ccc2c34)C(=O)N1 (centres unmarked),CRBN/Zinc finger protein Aiolos,"protein level, degrader, western blot",NCI-H929,"10 nM, 4 h",,remaining activity,55.7%
C#CCOC(=O)[C@@]1(C)C=C(C(=O)Nc2cccc(C(=O)Nc3ccc(C)c(Nc4nccc(-c5cccnc5)n4)c3)c2)C(=O)CC1,MAPK9,"enzyme activity, inhibitor",,"2.788e-05 µM, unit not given",relative to: vehicle,remaining activity,0.997
O=C1CCC(N2Cc3c(OCc4ccc(CN5CCNCC5)cc4)cccc3C2=O)C(=O)N1 (centres unmarked),CRBN/Zinc finger protein Aiolos,"protein level, degrader, western blot",NCI-H929,"1 nM, 4 h",,remaining activity,96.6%
O=C(O)c1ccc(-c2nc(-c3ccccc3)c3sccn23)cc1,"BLVRB (Homo sapiens, UniProt P30043)",,,concentration not given,,remaining activity,100%
O=C1CCC(N2C(=O)c3cccc4c(Cn5cc(C6CCNCC6)nn5)ccc2c34)C(=O)N1 (centres unmarked),CRBN/Zinc finger protein Aiolos,"protein level, degrader, western blot",NCI-H929,"1 nM, 4 h",,remaining activity,86.3%
COc1cc(Nc2nc(C)cc(-c3cnn4nc(OC)ccc34)n2)cc(C(F)(F)F)c1,"PIK3CA (Homo sapiens, UniProt P42336)",inhibitor,,1 µM,relative to: control,remaining activity,100%
O=C1CCC(N2C(=O)c3cccc4c(Cc5cnn(C6CCN(C(=O)CS)CC6)c5)ccc2c34)C(=O)N1 (centres unmarked),CRBN/Zinc finger protein Aiolos,"protein level, degrader, western blot",NCI-H929,"100 pM, 4 h",,remaining activity,101%
CO[C@@H]1[C@@H](OC(=O)c2ccc(C)[nH]2)[C@@H](O)[C@H](Oc2ccc3c(O)c(NC(=O)c4c[nH]c(C(=O)Nc5c(O)c6ccc(O[C@@H]7OC(C)(C)[C@H](OC)[C@@H](OC(=O)c8ccc(C)[nH]8)[C@H]7O)c(C)c6oc5=O)c4C)c(=O)oc3c2C)OC1(C)C,"Large T antigen (Simian virus 40, UniProt P03070)",fork unwinding,,125 µM,,remaining activity,7%

# For quick reference, copied from above:
SMILES,target or system,test,system,conditions,scale,measurement,result
C#CCOC(=O)[C@@]1(C)C=C(C(=O)Nc2cccc(C(=O)Nc3ccc(C)c(Nc4nccc(-c5cccnc5)n4)c3)c2)C(=O)CC1,MAPK9,"enzyme activity, inhibitor",,"2.788e-05 µM, unit not given",relative to: vehicle,remaining activity,0.997
